# Assay results of several laboratories.
# Lines come from different studies, so protocols differ.
Substance,cell line,test,test system,setting,inhibition
CC12CC3CC(C)(C1)CC(c1cc(-c4ccc(/C=C/C(=O)O)cc4Cl)ccc1O)(C3)C2,KG-1,cell proliferation,,"5 µM, 48 h",0%
O=C(NC(=S)Nc1ccc(-c2nc3ccccc3o2)cc1)c1ccc2ccccc2c1,SW-620,colony formation,,"25 µM, 3D culture",65 to 70%
O=C(O)/C=C/c1ccc(-c2ccc(F)c(C34CC5CC(CC(C5)C3)C4)c2)c(Cl)c1,KG-1,cell proliferation,,"5 µM, 48 h",0%
CCN1C(=O)/C(=C\c2ccc(F)cc2)S/C1=N/N=C(\C)c1ccccn1,HEp-2,"cell growth or viability, SRB",,"100 µg/mL, 48 h",74%
COc1ccc2c(c1)CC[C@@H]1[C@@H]2CC[C@]2(C)[C@@H](NCCCCCCN3C(=O)C=CC3=O)CC[C@@H]12,neonatal rat DRG neurons,"bradykinin-evoked action potential firing, multielectrode array",,"5 µM, 1 h, with: 1 µM bradykinin",64.7%
CCn1c(C)c(/N=N/c2ccc(Cl)cc2)s/c1=N/N=C(\C)c1ccccn1,HEp-2,"cell growth or viability, SRB",,"100 µg/mL, 48 h",61.6%
CCN1CCN(CC(=O)Nc2ccc(-c3cccc4c(=O)cc(N5CCOCC5)oc34)c3sc4ccccc4c23)CC1,SW-620,"cell growth, SRB",,"1 µM, 120 h",55%
Cc1cc(C)c(C=NNc2nc(-c3ccc(C#N)cc3)cs2)c(C)c1,HCT-116,colony formation,,"10 µM, 24 h",100%
COc1ccc(/C=C2/S/C(=N/N=C(\C)c3ccccn3)NC2=O)cc1,HEp-2,"cell growth or viability, SRB",,"100 µg/mL, 48 h",74.4%
N#Cc1ccc(-c2csc(NN=Cc3ccccc3F)n2)cc1,HCT-116,colony formation,,"5 µM, 24 h",5 to 50%
CCN1C(=O)CS/C1=N/N=C(\C)c1ccccn1,HEp-2,"cell growth or viability, SRB",,"100 µg/mL, 48 h",73.2%
N#Cc1ccc(-c2csc(NN=Cc3sccc3Br)n2)cc1,HCT-116,colony formation,,"10 µM, 24 h",100%
GRDGS,B16-F10,cell spreading on fibronectin,peptide,"concentration not given, 60 min, with: fibronectin 4 µg/mL coat",inactive

# Repeated from above:
Substance,cell line,test,test system,setting,inhibition
Cc1cc(C)c(C=NNc2nc(-c3ccc(C#N)cc3)cs2)c(C)c1,HCT-116,colony formation,,"10 µM, 24 h",100%
